Measurements collected from several papers.
Parts stem from different laboratories: compare values within a part only.

Study 1
Target: Histone acetyltransferase KAT6A, both winged helices, GST fusion (KAT6A, Homo sapiens, UniProt Q92794, residues 1-181)
Method: protein binding microarray
Molecule type: double-stranded DNA, one strand shown
Medium: in vitro
Tested at: not given
Notes: 8-mer, flanks averaged, mean of 2 arrays, mostly near background
Reference: not given
Direction: higher = stronger binding
Construct (chain): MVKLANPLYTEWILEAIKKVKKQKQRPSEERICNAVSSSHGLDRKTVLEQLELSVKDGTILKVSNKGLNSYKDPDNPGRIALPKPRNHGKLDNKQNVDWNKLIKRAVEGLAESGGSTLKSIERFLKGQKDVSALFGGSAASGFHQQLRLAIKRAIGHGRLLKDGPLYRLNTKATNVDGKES
Oligonucleotide | E-score
CAGAGACC | 0.01
ATATGGAA | -0.0479
CGAATTTC | -0.00751
CGTCTTTA | 0.0562
CGGCTGTA | 0.201
GTTTAAAC | 0.191
AGGCCGTG | 0.187
AAAAATGC | 0.0312
TCTGTGCA | -0.197

Study 2
Target: RING finger protein unkempt homolog, zinc fingers 1-6, GST-SBP tag (UNK, Homo sapiens, UniProt Q9C0B0, residues 30-357)
UniProt Q9C0B0, sequence (30-357, looked up): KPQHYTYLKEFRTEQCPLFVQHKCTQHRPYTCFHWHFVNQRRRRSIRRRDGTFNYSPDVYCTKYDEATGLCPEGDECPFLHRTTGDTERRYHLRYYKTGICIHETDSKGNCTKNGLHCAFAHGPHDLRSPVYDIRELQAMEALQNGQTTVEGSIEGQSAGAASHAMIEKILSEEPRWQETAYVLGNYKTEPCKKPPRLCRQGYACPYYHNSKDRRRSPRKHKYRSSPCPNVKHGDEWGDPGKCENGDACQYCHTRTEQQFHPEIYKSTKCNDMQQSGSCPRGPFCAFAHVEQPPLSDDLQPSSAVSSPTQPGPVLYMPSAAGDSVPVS
Method: RNA Bind-n-Seq
Molecule type: RNA
Medium: in vitro
Tested at: not given
Notes: RNA with constant flanks, ends assumed
Reference: input RNA pool
Direction: higher = stronger binding
Oligonucleotide | bound/input enrichment
GGGAGUUCUACAGUCCGACGAUCAGGAGUGUACGGCUAGUCAGAGACAAAGACACAGAUAAAUUUAAAGGAUUCUGCUAUGCCGAAUUCGAUGAAGUGGAUUCCCUUAAGGAAGCCUUGACAUACGAUGGUGCACUGUUGGGCCAACAGAGGAUUGAGCAUCA | 0.249 ratio
GGGAGUUCUACAGUCCGACGAUCAAACGGCAGGAAGACCCUGACCACUGUCCAAGGGAUCGCUGAUGAUUACGAUAAAAAGAAACCCGUGAAGGCGUUUAAGAAGAAGUUUGCCUGCAAUGGUACUGUAAUUGAGCAUCCAGACAACAGAGGAUUGAGCAUCA | 0.151 ratio
GGGAGUUCUACAGUCCGACGAUCCUGCGCUCGCUGGCCUUCAGGAAGGAGUUCCAGGACGCUAGCCUCCGCAGUAGCACCUUCCGCUCCUUUGACAAUGACAUAGAGAACCACCUCAUCGGUGGGCACAAUGUGGUUCAGCCCCAACAGAGGAUUGAGCAUCA | 0.154 ratio
GGGAGUUCUACAGUCCGACGAUCGAGUGAAGGACUGUAAUCAUAAUAUGCUCACUACUUGCUCUUGUUUUUGUUUUAAUAAACUACCGCCGUGUUUUAAAAAGUUAAAUGAAGAAUAAACGCAAAUAUAAAAGCUCUGAUUUUCAACAGAGGAUUGAGCAUCA | 0.154 ratio

Study 3
Target: Sal-like protein 4, full length isoform B (SALL4, Homo sapiens, UniProt Q9UJQ4-2, residues 1-616)
Method: universal PBM
Molecule type: double-stranded DNA, one strand shown
Medium: in vitro
Tested at: not given
Notes: 8-mer, flanks averaged, mean of replicates
Direction: higher = stronger binding
Oligonucleotide | E-score
AGTTGAAT | 0.151
CAAACACC | -0.0426
CGCTAACA | -0.064
CATAATTC | 0.384
TCATGGAA | 0.262
GTACAGTA | 0.177
AGAGCCTC | -0.215
CTATTTTC | 0.2
GGGCAAAC | -0.192

Further values, each from its own experiment
Substance | target | assay | system | setting | scale | endpoint | result
PhoQ, residues 284 288 289 292 302 303 TASMAF | PhoP, residues 12 14 15 18 19 GHCSL (Escherichia coli, UniProt P23836) | Sort-seq, measured: YFP reporter | E. coli | PhoQ-PhoP variant library, with: 10 µM Mg2+ | reference: high Mg2+ state, higher = stronger signaling | fold induction | 19

Excerpt of the above (study 1):
Oligonucleotide | E-score
ATATGGAA | -0.0479
AGGCCGTG | 0.187
TCTGTGCA | -0.197
